# Literature values that unrelated publications cite.
# Lines come from different studies, so protocols differ. “And” joins repeats or separate records; there may be more than shown. ± marks the error that the study gave.
Compound,organism,test,system,conditions,scale,measurement,value
CC[C@H](C)[C@@H]1NC(=O)[C@H](CCC(N)=O)NC(=O)[C@H](CCCCN)NC(=O)[C@H](Cc2ccc(O)cc2)NC(=O)[C@H](CCCNC(=N)N)NC(=O)[C@H](CCCNC(=N)N)NC(=O)[C@@H]2CCCN2C(=O)[C@@H](NC(=O)[C@@H](N)Cc2ccccc2)CSSC[C@@H](C(=O)N[C@@H](CCCCN)C(=O)O)NC(=O)[C@H](CCCCN)NC(=O)[C@H]([C@@H](C)O)NC(=O)CNC(=O)[C@@H]2CCCN2C(=O)[C@H](CC(C)C)NC(=O)CNC(=O)[C@H]([C@@H](C)O)NC(=O)CNC1=O,Escherichia coli,,K-12 MG1655,pH 7.4,,MBC,19 µM
O=C(O)[C@@H]1Cc2c([nH]c3ccccc23)[C@@H](c2ccc(C(F)(F)F)cc2C(F)(F)F)N1,Plasmodium falciparum,parasite growth,Dd2,,,IC50,> 10000 nM
Cc1c(Cc2c(Cl)cccc2Cl)c(=O)ccn1Cc1cccs1,Staphylococcus aureus,,methicillin-resistant,,,MIC,1 µg/mL
CCN(CCNc1ccnc2cc(Cl)ccc12)CCNS(=O)(=O)c1cccc2c(N(C)C)cccc12,Plasmodium falciparum,parasite growth,"Dd2, chloroquine-resistant",,,IC50,22.7 nM
CC[C@H](C)[C@@H]1NC(=O)[C@H](CCC(N)=O)NC(=O)[C@H](CCC(=O)O)NC(=O)[C@H](CCC(=O)O)NC(=O)[C@H](CCCCN)NC(=O)[C@@H]2CCCN2C(=O)[C@H](CC(C)C)NC(=O)[C@@H](NC(=O)[C@@H](N)CO)CSSC[C@@H](C(=O)N[C@@H](CCCNC(=N)N)C(=O)N[C@@H](CCCNC(=N)N)C(=O)N[C@@H](CCCCN)C(=O)N[C@@H](CCCCN)C(=O)O)NC(=O)[C@H](CCCCN)NC(=O)[C@H](CCCNC(=N)N)NC(=O)CNC(=O)[C@H](CCCNC(=N)N)NC(=O)[C@H]([C@@H](C)O)NC(=O)[C@H](CO)NC(=O)[C@H](CCCCN)NC(=O)CNC1=O,Staphylococcus aureus,,ATCC 8530,pH 7.4,,MBC,17 µM
C[C@H](NC(=O)[C@H](Cc1c[nH]cn1)NC(=O)[C@H](CO)NC(=O)[C@@H](N)CC(=O)O)C(=O)N[C@@H](CCCCN)C(=O)N[C@@H](CCCNC(=N)N)C(=O)N[C@@H](Cc1c[nH]cn1)C(=O)N[C@@H](Cc1c[nH]cn1)C(=O)NCC(=O)N[C@@H](Cc1ccc(O)cc1)C(=O)N[C@@H](CCCCN)C(=O)N[C@@H](CCCNC(=N)N)C(=O)N[C@@H](CCCCN)C(=O)N[C@@H](Cc1ccccc1)C(=O)N[C@@H](Cc1c[nH]cn1)C(=O)N[C@@H](CCC(=O)O)C(=O)N[C@@H](CCCCN)C(=O)N[C@@H](Cc1c[nH]cn1)C(=O)N[C@@H](Cc1c[nH]cn1)C(=O)N[C@@H](CO)C(=O)N[C@@H](Cc1c[nH]cn1)C(=O)N[C@@H](CCCNC(=N)N)C(=O)NCC(=O)N[C@@H](Cc1ccc(O)cc1)C(=O)O,Porphyromonas gingivalis,,381,concentration not given,,binding sites per cell,~3600
COc1cc2ccc(-c3nc4ccccc4n3Cc3ccccc3Cl)c(OC)c2c(OC)c1OC,Zika virus,,African strain,,baseline: CC50 over EC50,selectivity index,37.3
CC(C)C1(CC[C@@H](C)[C@H]2[C@@H](O)CC3C4CCC5C[C@H](OS(=O)(=O)O)[C@@H](OS(=O)(=O)O)C[C@]5(C)C4CC[C@@]32CO)CC1C (stereo partly drawn),HIV,viral replication,,concentration not given,,antiviral activity,active
O=C(NCCNCCO)c1cn(Cc2ccccc2)c2cc(Cl)c(OCc3ccc(C(F)(F)F)cc3)cc2c1=O,Staphylococcus aureus,growth,MRSA ATCC 43300,,,MIC,> 32 µg/mL
CN1CCC2(CC1)c1ccccc1N(Cc1ccc(C(=O)NO)cc1)C2c1cccc(Cl)c1 (stereo not drawn),Schistosoma mansoni,,schistosomula,,,LD50,20.6 µM
CNC(=O)c1cccc(-c2ccc(O[C@H]3O[C@H](CO)[C@@H](O)[C@H](O)[C@@H]3O)cc2)c1,Escherichia coli,biofilm formation,UPEC UTI89,,,IC50,1350 nM
Cc1cc(C#N)cc(C)c1Oc1nc(NC2CCN(Cc3ccc(S(N)(=O)=O)cc3)CC2)nc2ccsc12,HIV-1,,IIIB,,baseline: CC50 over EC50,selectivity index,> 159000
C=C[C@@H]1C[C@]1(NC(=O)[C@@H]1C[C@@H](Oc2nccc3c(OC)cccc23)CN1C(=O)[C@@H](NC(=O)OC(C)(C)C)C(C)(C)C)C(=O)NS(=O)(=O)C1CC1,hepatitis C virus,replicon replication,genotype 1b,,,EC50,19 nM and 25 nM
O=C(NNC(=S)Nc1ccc(C(F)(F)F)cc1)c1ccc(-c2nnc(-c3ccc4ncccc4c3)o2)cc1,Leishmania,,,,,IC50,100 ± 1 nM
Cc1onc(-c2c(Cl)cccc2Cl)c1C(=O)Nc1ccc(F)cc1C(=O)NN=Cc1cccs1,Tobacco mosaic virus,,,concentration not given,baseline: ningnanmycin,antiviral activity,increased
CN(CCCN)[C@H](C(=O)O)[C@H](O[C@@H]1O[C@H](CN)[C@@H](O)[C@H]1O)[C@H]1O[C@@H](n2ccc(=O)[nH]c2=O)[C@H](O)[C@@H]1O,Staphylococcus,,,,,MIC,3.13 µg/mL
COc1ccc(/C=C(\C)[N+](=O)[O-])cc1,Leishmania donovani,parasite growth,amastigote,,,IC50,26.4 ± 2.71 nM
CNC(=O)[C@@H]1Cc2c([nH]c3ccccc23)[C@@H](c2ccc(C)cc2Cl)N1,Plasmodium falciparum,parasite growth,Dd2,,,IC50,340 ± 50 nM
CCCCCCCc1c(C)nc2cc(F)cc(F)c2c1OC(=O)OCCOCCOCCOCCOC,Plasmodium yoelii,antimalarial activity,,"oral, prodrug",,ED50,11 mg/kg
CC/C(=C\c1ccc(O)cc1)[N+](=O)[O-],Leishmania donovani,parasite growth,promastigote,,,IC50,55.7 ± 2.84 nM
CCCCCCCCCCCCCC[N+](C)(C)CCCNC(=O)[C@H]1NC(=O)[C@H]2NC(=O)[C@H](NC(=O)[C@@H]3NC(=O)[C@H](CC(N)=O)NC(=O)[C@H](NC(=O)[C@@H](CC(C)C)NC)[C@H](O)c4ccc(c(Cl)c4)Oc4cc3cc(c4O[C@@H]3O[C@H](CO)[C@@H](O)[C@H](O)[C@H]3O[C@H]3C[C@](C)(N)[C@H](O)[C@H](C)O3)Oc3ccc(cc3Cl)[C@H]2O)c2ccc(O)c(c2)-c2c(O)cc(O)cc21,Enterococcus,,VanA vancomycin-resistant,concentration not given,baseline: vancomycin,activity improvement,125 fold
O=C(NO)c1ccc(Cn2c3c(c4cc(F)ccc42)SC(c2ccccc2)C3)s1 (stereo not drawn),Schistosoma mansoni,,schistosomula,,,LD50,23.3 µM
c1ccc(-c2nc3n(c2-c2ccc4sccc4c2)CCC3)nc1,Staphylococcus aureus,,methicillin-resistant,,,MIC,2 µg/mL
COc1ccc(NC2=C(O)C(=O)c3ccccc3C2=O)cc1,Plasmodium berghei,,infected mice,dose not given,,mean survival time,26 ± 4 days

# A few entries again:
Compound,organism,test,system,conditions,scale,measurement,value
CNC(=O)[C@@H]1Cc2c([nH]c3ccccc23)[C@@H](c2ccc(C)cc2Cl)N1,Plasmodium falciparum,parasite growth,Dd2,,,IC50,340 ± 50 nM
